Published values of several laboratories.
Every numbered part comes from another study and shows a few of its results, in no order.

Study 1 — technique: protein binding microarray; molecule type: double-stranded DNA, one strand shown; medium: in vitro; tested at: not given; reference: not given; reading: higher = stronger binding
Target: Histone acetyltransferase KAT6A, winged helix 2, GST fusion (KAT6A, Homo sapiens, UniProt Q92794, residues 85-181)
Notes: 8-mer, flanks averaged, mean of 2 arrays, mostly near background
Target sequence (chain): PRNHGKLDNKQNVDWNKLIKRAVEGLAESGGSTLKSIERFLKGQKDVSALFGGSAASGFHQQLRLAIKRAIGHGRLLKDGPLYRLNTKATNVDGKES
| Strand | E-score |
| --- | --- |
| GTATAAGA | -0.195 |
| AGGGATCC | -0.105 |
| ACAGTCAC | -0.25 |
| AGTTCTTC | 0.0548 |
| CAGCACCG | 0.0265 |
| GATCGTGA | -0.213 |
| AAGAGGGG | -0.0226 |
| GTGAATCA | -0.103 |
| AATCCCAT | -0.179 |
| TGTATAAA | 0.0557 |
| AGTCGTGC | -0.112 |
| GAAAACAA | 0.117 |
| ACCCTCTA | -0.183 |
| AATGAAAG | 0.0205 |
| AAAGCAAC | 0.237 |
| CACTGTGC | 0.058 |
| AGTTGATG | 0.0775 |
| CAAGGGCA | -0.00241 |
| AATGCTGC | -0.0508 |
| AGATGAAC | 0.0772 |
| ACCGTCAC | -0.0469 |
| GACGTATA | -0.25 |
| CCACTTAC | -0.113 |
| GTGACCCA | 0.0807 |
| AGGCGACA | 0.0442 |

Study 2 — technique: RNA Bind-n-Seq; molecule type: RNA; medium: in vitro; tested at: 365 nM; reference: no-protein control; reading: higher = stronger binding
Target: RNA binding protein fox-1 homolog 2, RRM domain, GST-SBP tag (RBFOX2, Homo sapiens, UniProt O43251-10, residues 100-194)
Notes: natural RNA segment, single round, ends assumed
Constant ends, left off below: GGGAGUUCUACAGUCCGACGAUC … UGGAAUUCUCGGGUGCCAA
Target sequence (chain): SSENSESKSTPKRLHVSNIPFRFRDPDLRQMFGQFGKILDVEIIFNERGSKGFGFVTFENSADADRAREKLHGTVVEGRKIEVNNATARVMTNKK
| Strand | RBNS enrichment (R) |
| --- | --- |
| GUUUCAUGCCCCUGGACCAGCCUUAUCUCAGACCUGCUUACCUGCAUGAUGCCUUUUUGGGGGCUGGGGAUUGAGUCUUGCUGCUCUGCCCAGCCCUGUUCUAUUCUGCA | 2.47 |
| CCACGUCUGGCUGCUGAUGAACGGUUUAGCCCAGUGACUUCCCUCUGUGUAGCUGAGCAAGGUCUGCUCUCCAGAGGAACACAUCUGCAUUGAACACAUCUGCAAGUACA | 0.544 |
| GAGUCCCUUAACCCCUCUGAGCCCGGGUCUCUUCAUUAGUUGAAAGGGAUAGUAAUACCUACUUGCAGGUUGUUGUCAUCUGAGUUGAGCACUGGUCACAUUGAAGGUGC | 0.702 |
| AAUUGAGACUGCAAGUGGGGGAGGUGGAGGGUCUGGGGGAGUCUGCCCCCAAUCCAGGAGUACCCCCCUUGCCACCAAGUCUCCUUUAUUGCCUGCCUCUGCUGUGAAUU | 1.16 |
| CAAUUCACAGCACAGUACACACAAAAACCUUGGCAUAAGACAGAGAAGGUUCUUCUUAUUUUGUGGGCUGGUUGCUGUAGAAACACAUAACAAAGGGCAGCCCUCCACUU | 0.969 |
| UUAAACCUGAAGAUUUCCGCAGUCCGUGUAAGCAUGUUUACCCGUUGGCUCGCUUUCUGUGUCUGUUAAAUGAAUGUCAUAUGUAAAUGCUAAACUAAGUCAACAGUGUC | 25.6 |
| UUUGCACUUUGAUGGGCAUUAAAAAAAAUAGCCCUCACAAGAUAGUAACCUCAAAUUCCUGUUCUUGGUUCUUAUUUAAGCAUGGGUCUUCAUUCAACUCAGAAGGCCUG | 0.68 |
| UCAGAUUUCCAAAAUUUCACUCAUACAAGGGAAGAGACUCCAUUUAGCUUAACGGUAGUCUUUAGAUCAUAAGAAAUAUAUAAAUUAGUAUGCACCUUAUCUGCCUGUUG | 0.964 |
| UGAUUUCCUGACUUUAUGUUCUUGUGUUAUAAUGUUAUCCUAACCUCCAAAGAUAUUUGCACUGCUUUUAAUUAUUGCUGUGUAUCUAUUUCUUUGGGUAUUAUAACUGU | 0.267 |
| UCUGGACAGUGCGGUUACAAGCAUUAGUGAGUGUCCUGCUCCACGCCUGUGUGAACCAGGCACAGGAAAACAAACUCCUACAGGCUGUCAUGCUCCUGCAGGAAGAUGAG | 0.48 |
| UGCAGAGGUGGCAUCCAGUGUGGGCCCUAGCACUCCAGAGACUGGCCCGGGCGUGCACUAGGCGGGGCAAGAGGAAGCACGUCCCCAAGUUGAUUGUAGUUGUCCCGUCC | 5.77 |
| GACCGUGUUUGGAGGCUUCUGGUAUCCUAAACACCAAGAUCCACUCAGCCCUGUGCCCUGAUGAUGUCCCUGGCCUGUGAAUUCUGUCCUUGACUGACCCGUGCUCCUGG | 0.256 |

Study 3 — technique: protein-binding microarray; molecule type: double-stranded DNA, one strand shown; medium: in vitro; tested at: 0.8 µM; notes: whole 60-bp probe, no competitor; reading: higher = stronger binding; constant ends, left off below: … GTCTTGATTCGCTTGACGCTGCTG
Target: Centromere-binding protein 1, full length, N-terminal tag (CBF1, Saccharomyces cerevisiae, UniProt P17106, residues 1-351)
Sequence of UniProt P17106 (whole entry, looked up): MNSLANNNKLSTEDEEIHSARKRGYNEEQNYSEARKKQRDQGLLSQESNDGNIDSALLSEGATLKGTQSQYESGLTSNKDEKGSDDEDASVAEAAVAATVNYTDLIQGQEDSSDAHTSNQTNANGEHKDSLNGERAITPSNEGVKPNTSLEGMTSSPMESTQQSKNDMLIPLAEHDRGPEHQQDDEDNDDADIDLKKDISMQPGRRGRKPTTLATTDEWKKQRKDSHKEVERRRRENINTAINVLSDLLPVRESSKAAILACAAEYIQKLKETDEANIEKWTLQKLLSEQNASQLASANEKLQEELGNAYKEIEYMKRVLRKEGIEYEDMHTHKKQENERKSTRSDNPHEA
| Strand | fluorescence intensity [a.u.] |
| --- | --- |
| CCTAACTACTATAATCATGTTCTATAGCTTCGTACA | 512 |
| CTACTTTAGTACGGTCACCCCATCTACAAGCATTTC | 582 |
| GAATCAGGTCCGGGTCACACCACTACCCTTACTTAG | 925 |
| GAATGAGTAAATTTGAAGGTGGTGCACAAAGTCTAG | 523 |
| CTATATGATATCGCTAGCATGATGTTAGTGTTTTTC | 506 |
| GAATAGAATTTTTTCCACGCGCTCTCGATCAATTAG | 574 |
| CTATAGCTTCATCCAGGTGAGCCCGCAAACATTTTC | 544 |
| GAACAAATGCATCTGCAGGTGTACTGCCATTATTAG | 509 |
| GAAATATATTATAATCACGTCTTCCTCCTTTTTTAG | 720 |
| GAAATTGTTTTAATTATCGTGACTTGTTGTTTTTAG | 762 |
| CCTAACTACTATACCCACGATATATAGCTTCGTACA | 511 |
| GAACTATGAGCCGTCCACGTTTCCAAAAAAACCTAG | 651 |
| TGTACGAAGCTATTGTACGTGCTTATAGTAGTTAGG | 559 |
| GAAATAAAACAAATCCACGAGCTGAAGGTAACATAG | 531 |
| TGTACGAAGCTATTTTATGTGATTATAGTAGTTAGG | 495 |
| CTACGCTGATATCTGCACATGTGAGTAACGCAGTTC | 1330 |
| CTATATTTAATTCAAGGTCATGTGGATTTCAAATTC | 4010 |
| CCTAACTACTATACACACGTGAAATAGCTTCGTACA | 1760 |
| GAACATTTATAAAGATGTCACATGGACCACTATTAG | 3320 |

Study 4 — technique: protein-binding microarray; molecule type: double-stranded DNA, one strand shown; medium: in vitro; tested at: 250 nM; notes: 60-bp whole probe; added: salmon DNA 0.4 mg/ml; reference: random background probes; reading: higher = stronger binding; constant ends, left off below: GCCTAGCAC … GTCTTGATTCGCTTGACGCTGCTG
Target: Interferon regulatory factor 5, full length, phosphomimetic (IRF5, Homo sapiens, UniProt Q13568-2, residues 1-514, K96S/S451D/S453D/S456D/S462D)
| Strand | log fluorescence |
| --- | --- |
| GACGGTCTACTACTGCTGACGTGCTAG | -0.205 z-score |
| AGATTTTTCTCAACCGTTGTGTGCTAG | 0.68 z-score |
| TTATGGTGTGGAGAAGGCACGTGCTAG | -0.282 z-score |
| TTAGATTGCAGTTTCGATTAGTGCTAG | 9.14 z-score |
| TCATTTTTCTATATGCAACTGTGCTAG | 2.1 z-score |
| ATAGATATCAGACTGGATTAGTGCTAG | 0.367 z-score |
| GTCACTCTCAGAATCTCTCAGTGCTAG | 0.11 z-score |
| GCCGGTTTCCTACTGCTGACGTGCTAG | 0.283 z-score |
| TTAGATTTCAGCATCGATTAGTGCTAG | 1.69 z-score |
| GACGAACCGGGGACTGGAGACGTGCTA | -0.347 z-score |
| GACGGTTTCGGGTTTCGGGAGGTGCTA | 8.01 z-score |
| TCAATTTTCGGGTAGATGACTGTGCTA | 5.85 z-score |
| TTAGAACTGCGTATCGATTAGTGCTAG | 3.22 z-score |
| GACGGCCTGCTACTGCTGACGTGCTAG | -0.618 z-score |
| GACGAACTGAGTTTCGAGACGTGCTAG | 4.65 z-score |
| AGGGTGTTCTTTTCTGTTGTCGTGCTA | 0.97 z-score |
| GGCGGTTTCGACTATCGGGACGTGCTA | 7.15 z-score |
| GCCGATCTCAGACTGGAGACGTGCTAG | -0.47 z-score |
| TTAGAACTGAGACTGGGTTAGTGCTAG | -0.137 z-score |
| TGAGATATCAGTATCGATTAGTGCTAG | 6.91 z-score |
| CACACCCGGCTCCTCTGCCAGTGCTAG | -0.81 z-score |
| TTCGGTCTCCTTATCCTTTAGTGCTAG | 0.967 z-score |
| GACGGTATCGACACTGGGGGCGTGCTA | 2.78 z-score |
| TTTCCTCTTTCTTTGCTTCAGTGCTAG | 4.36 z-score |
| GACGGTATCGACTATAGGGACGTGCTA | 2.28 z-score |

Study 5 — technique: protein-binding microarray; molecule type: double-stranded DNA, one strand shown; medium: in vitro; tested at: not given; reading: higher = stronger binding
Target: Transcriptional repressor CTCF (CTCF, Homo sapiens, UniProt P49711, residues 1-727, full length assumed)
Notes: k-mer, scored over probes, only values ≥0.25
Construct (chain): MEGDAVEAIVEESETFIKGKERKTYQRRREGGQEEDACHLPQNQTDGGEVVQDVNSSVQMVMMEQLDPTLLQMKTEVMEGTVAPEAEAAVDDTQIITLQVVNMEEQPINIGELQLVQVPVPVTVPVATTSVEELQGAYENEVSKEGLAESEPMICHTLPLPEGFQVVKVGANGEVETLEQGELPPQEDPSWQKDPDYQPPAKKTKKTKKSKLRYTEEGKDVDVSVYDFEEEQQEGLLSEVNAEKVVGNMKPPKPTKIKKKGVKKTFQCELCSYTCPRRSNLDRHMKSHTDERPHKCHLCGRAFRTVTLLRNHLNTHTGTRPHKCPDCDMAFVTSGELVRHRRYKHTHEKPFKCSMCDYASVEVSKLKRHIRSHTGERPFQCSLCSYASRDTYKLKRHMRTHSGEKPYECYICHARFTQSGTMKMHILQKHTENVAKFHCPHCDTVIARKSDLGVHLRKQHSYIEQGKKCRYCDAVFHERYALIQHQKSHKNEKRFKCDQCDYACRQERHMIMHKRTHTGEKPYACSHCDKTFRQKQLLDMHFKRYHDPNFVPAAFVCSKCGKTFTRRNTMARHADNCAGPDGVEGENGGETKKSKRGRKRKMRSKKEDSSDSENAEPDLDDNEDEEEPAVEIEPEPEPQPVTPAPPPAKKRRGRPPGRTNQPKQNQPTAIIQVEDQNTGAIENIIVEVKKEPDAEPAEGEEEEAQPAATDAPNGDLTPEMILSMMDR
| Strand | E-score |
| --- | --- |
| ACTGTTAC | 0.26 |
| ATATAGTA | 0.34 |
| ACTCGTAA | 0.28 |
| GCGATTAA | 0.337 |
| GCGCCCCC | 0.485 |
| CCCTACCG | 0.275 |
| GTAATTAC | 0.295 |
| CATTATAC | 0.275 |
| TGACATAA | 0.31 |
| ACTATTAT | 0.293 |
| ATCAACAT | 0.269 |
| CTCGCGCA | 0.289 |
| ATAATTAG | 0.29 |
| AAATAGTG | 0.254 |
| CGCCGCAA | 0.277 |
| GCATGCGC | 0.309 |
| ACTTATAA | 0.251 |
| AACATTAT | 0.321 |
| CACATTAC | 0.301 |
| ATTATCTC | 0.277 |
| ATTCGATA | 0.268 |
| AAAAGCTG | 0.321 |
| TACTCATA | 0.254 |
| ATAGGAAA | 0.25 |
| CTAATAAC | 0.275 |

Some of these lines once more (study 3):
| Strand | fluorescence intensity [a.u.] |
| --- | --- |
| GAATCAGGTCCGGGTCACACCACTACCCTTACTTAG | 925 |
| GAAATTGTTTTAATTATCGTGACTTGTTGTTTTTAG | 762 |
| TGTACGAAGCTATTGTACGTGCTTATAGTAGTTAGG | 559 |
| CCTAACTACTATACCCACGATATATAGCTTCGTACA | 511 |
| GAACATTTATAAAGATGTCACATGGACCACTATTAG | 3320 |
| CTATATTTAATTCAAGGTCATGTGGATTTCAAATTC | 4010 |
| GAACTATGAGCCGTCCACGTTTCCAAAAAAACCTAG | 651 |
| GAACAAATGCATCTGCAGGTGTACTGCCATTATTAG | 509 |
| CCTAACTACTATACACACGTGAAATAGCTTCGTACA | 1760 |
| CCTAACTACTATAATCATGTTCTATAGCTTCGTACA | 512 |
